{"data": "Results of several laboratories", "note": "Lines come from different studies, so protocols differ.", "UniProt P21802, sequence (whole entry, looked up)": "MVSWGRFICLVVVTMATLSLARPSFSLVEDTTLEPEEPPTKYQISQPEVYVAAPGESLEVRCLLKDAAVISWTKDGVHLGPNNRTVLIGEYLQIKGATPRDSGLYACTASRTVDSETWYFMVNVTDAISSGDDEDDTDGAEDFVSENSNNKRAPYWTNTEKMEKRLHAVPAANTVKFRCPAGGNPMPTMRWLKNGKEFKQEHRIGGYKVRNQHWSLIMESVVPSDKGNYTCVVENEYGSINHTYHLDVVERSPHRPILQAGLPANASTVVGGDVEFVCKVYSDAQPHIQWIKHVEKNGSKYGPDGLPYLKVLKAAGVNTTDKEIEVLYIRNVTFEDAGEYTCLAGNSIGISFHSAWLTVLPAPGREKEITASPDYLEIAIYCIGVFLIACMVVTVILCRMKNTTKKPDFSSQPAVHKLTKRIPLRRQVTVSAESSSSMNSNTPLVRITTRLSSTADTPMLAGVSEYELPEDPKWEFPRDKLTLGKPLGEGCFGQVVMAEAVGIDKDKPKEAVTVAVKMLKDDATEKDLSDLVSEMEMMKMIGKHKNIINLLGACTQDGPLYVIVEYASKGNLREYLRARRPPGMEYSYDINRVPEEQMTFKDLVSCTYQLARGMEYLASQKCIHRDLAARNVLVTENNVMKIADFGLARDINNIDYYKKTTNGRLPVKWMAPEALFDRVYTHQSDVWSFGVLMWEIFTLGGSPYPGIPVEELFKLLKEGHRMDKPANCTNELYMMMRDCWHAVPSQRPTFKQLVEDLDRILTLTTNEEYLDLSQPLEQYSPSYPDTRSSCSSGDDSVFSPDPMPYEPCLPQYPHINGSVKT", "UniProt O15111, sequence (whole entry, looked up)": "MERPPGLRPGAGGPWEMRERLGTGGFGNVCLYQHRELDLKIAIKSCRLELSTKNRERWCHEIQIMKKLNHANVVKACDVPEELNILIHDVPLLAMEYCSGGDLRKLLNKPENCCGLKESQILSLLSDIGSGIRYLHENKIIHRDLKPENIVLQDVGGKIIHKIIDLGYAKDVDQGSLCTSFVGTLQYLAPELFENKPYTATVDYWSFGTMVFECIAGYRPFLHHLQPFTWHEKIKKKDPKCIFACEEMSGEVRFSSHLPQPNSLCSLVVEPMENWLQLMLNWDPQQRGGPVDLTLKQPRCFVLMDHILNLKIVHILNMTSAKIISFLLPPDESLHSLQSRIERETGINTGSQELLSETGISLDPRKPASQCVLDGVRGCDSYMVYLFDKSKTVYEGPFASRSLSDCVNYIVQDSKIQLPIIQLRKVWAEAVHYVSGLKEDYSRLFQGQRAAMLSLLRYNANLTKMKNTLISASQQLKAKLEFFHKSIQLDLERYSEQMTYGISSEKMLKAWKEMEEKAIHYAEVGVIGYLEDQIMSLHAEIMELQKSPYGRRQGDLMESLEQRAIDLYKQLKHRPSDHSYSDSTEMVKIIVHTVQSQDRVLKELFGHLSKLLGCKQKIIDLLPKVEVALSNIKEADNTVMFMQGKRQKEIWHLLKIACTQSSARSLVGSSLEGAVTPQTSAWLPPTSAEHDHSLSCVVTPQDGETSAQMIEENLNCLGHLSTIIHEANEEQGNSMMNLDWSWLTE", "UniProt P35626, sequence (whole entry, looked up)": "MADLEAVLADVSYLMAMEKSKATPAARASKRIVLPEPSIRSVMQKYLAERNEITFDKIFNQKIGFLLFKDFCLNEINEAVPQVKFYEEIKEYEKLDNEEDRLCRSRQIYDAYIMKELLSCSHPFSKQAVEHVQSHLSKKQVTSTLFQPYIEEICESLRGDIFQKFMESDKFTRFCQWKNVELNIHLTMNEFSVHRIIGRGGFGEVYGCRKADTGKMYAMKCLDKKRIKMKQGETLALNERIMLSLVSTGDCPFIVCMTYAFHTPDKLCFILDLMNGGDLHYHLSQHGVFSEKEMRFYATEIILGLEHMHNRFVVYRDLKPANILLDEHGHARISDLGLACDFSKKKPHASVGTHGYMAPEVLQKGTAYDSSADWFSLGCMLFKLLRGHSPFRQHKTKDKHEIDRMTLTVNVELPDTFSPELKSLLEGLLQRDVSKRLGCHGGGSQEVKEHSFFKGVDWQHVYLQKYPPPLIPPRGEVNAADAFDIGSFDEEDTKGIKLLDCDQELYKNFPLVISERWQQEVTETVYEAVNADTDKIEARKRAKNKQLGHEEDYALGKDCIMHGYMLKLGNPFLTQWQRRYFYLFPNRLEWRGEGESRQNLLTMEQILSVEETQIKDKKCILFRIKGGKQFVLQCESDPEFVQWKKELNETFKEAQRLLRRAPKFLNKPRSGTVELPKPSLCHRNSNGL"}
{"Structure (SMILES)": "COc1cc(-c2cncc3c2CN(C)Cc2cc(N4CCNCC4)ccc2-3)cc(OC)c1OC", "target": "cAMP-dependent protein kinase catalytic subunit beta (PRKACB, Homo sapiens, UniProt P22694)", "read-out": "enzyme activity", "action": "inhibitor", "tested at": "1 µM", "quantity": "remaining activity", "value": "113%"}
{"Structure (SMILES)": "Cc1cc([C@@H](C)Nc2ccccc2C(=O)O)c2nc(N3CCC(F)(F)CC3)c(C#N)c(=O)n2c1", "target": "Inhibitor of nuclear factor kappa-B kinase subunit alpha (CHUK, Homo sapiens, UniProt O15111)", "read-out": "binding", "technique": "competition with immobilised ligand", "tested at": "10 µM", "quantity": "remaining binding", "value": "76%"}
{"Structure (SMILES)": "CNc1ncc2c(/C=C/C(=O)N3CCC(OC)CC3)nn(Cc3cccc(C(F)(F)F)c3)c2n1", "target": "Fibroblast growth factor receptor 2 (FGFR2, Homo sapiens, UniProt P21802)", "read-out": "enzyme activity", "action": "inhibitor", "technique": "radiometric", "tested at": "1 µM", "quantity": "remaining activity", "value": "77%"}
{"Structure (SMILES)": "C=CC(=O)N1CCC(COCC(=O)N2CCN(c3nc(-c4cnc(N)nc4C(F)F)nc(N4CCOC[C@@H]4C)n3)CC2)CC1", "target": "G protein-coupled receptor kinase 3 (GRK3, Homo sapiens, UniProt P35626)", "read-out": "binding", "technique": "competition with immobilised ligand", "tested at": "1 µM", "quantity": "remaining binding", "value": "73%"}
